Earlier results, collected from citations in different studies.
Compare with care: the assays were run in different laboratories. ± gives the spread as reported. ≈ marks a conversion by molar mass, not a printed value.
UniProt Q8TDR2, sequence (whole entry, looked up): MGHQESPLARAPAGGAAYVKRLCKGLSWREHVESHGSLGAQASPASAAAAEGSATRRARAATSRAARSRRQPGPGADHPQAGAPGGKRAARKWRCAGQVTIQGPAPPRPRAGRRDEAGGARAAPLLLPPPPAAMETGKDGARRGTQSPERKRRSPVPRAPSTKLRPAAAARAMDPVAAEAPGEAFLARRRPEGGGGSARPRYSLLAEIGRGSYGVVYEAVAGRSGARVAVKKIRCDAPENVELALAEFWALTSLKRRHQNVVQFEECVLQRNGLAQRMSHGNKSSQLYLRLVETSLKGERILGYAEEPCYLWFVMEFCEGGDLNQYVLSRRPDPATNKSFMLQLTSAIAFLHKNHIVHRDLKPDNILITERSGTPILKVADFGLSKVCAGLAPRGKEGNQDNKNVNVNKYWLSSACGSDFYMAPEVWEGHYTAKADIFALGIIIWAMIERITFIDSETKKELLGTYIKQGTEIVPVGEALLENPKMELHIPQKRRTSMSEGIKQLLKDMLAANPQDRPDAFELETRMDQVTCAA

With `Nc1cc(C(F)(F)F)c(-c2nc(N3CCOCC3)nc(N3CCOCC3)n2)cn1` the remaining activity was 85% (STK35 (Homo sapiens, UniProt Q8TDR2); enzyme activity; 10 µM; relative to: untreated).
The EC50 of `[Ca]` is reported as about 600 nM (KCa2 channels; ion current, activator).
For `CC1(C)S[C@@H]2[C@H](NC(=O)[C@H](N)c3ccccc3)C(=O)N2[C@H]1C(=O)O`, the MIC was over 16 µg/mL (Acinetobacter baumannii; clinical isolate RKI-No_11/16).
`CC(=O)N[C@H]1[C@@H](OP(=O)(O)OP(=O)(O)OC[C@H]2O[C@@H](n3ccc(=O)[nH]c3=O)[C@H](O)[C@@H]2O)O[C@H](CO)[C@@H](O)[C@@H]1O` gave an EC50 of about 190 nM (P2Y14 receptor; agonist).
For `CNC(C)C1CCC(N)C(OC2C(N)CC(N)C(OC3OCC(C)(O)C(NC)C3O)C2O)O1` (stereo not shown), the MIC was 8 µg/mL (≈ 16.8 µM) (Acinetobacter baumannii; clinical isolate RKI-No_11/16).
`Cc1cc(C)c(C)c(S(=O)(=O)Nc2ccc(N3CC[C@H](C(=O)O)C3)c3ccccc23)c1C` has an EC50 of about 40000 nM (ARE; luciferase reporter gene, activator).
With `O=C(O)[C@H]1O[C@H](OP(=O)(O)OP(=O)(O)OC[C@H]2O[C@@H](n3ccc(=O)[nH]c3=O)[C@H](O)[C@@H]2O)[C@H](O)[C@@H](O)[C@@H]1O` the EC50 was about 60 nM (P2Y14 receptor; agonist).
With `Fc1ccc(-c2c3cccc(C(F)(F)F)c3nn2Cc2ccc(F)cc2Cl)cc1` the EC50 was 540 nM (ABCA1).
With `COc1ccccc1Oc1cccc(CN2CCC(NC(=O)C3CC(=O)Nc4ccccc43)CC2)c1` (stereo not shown) the EC50 was 64 nM (human CCR8 F254A mutant (TM6); IP accumulation, agonist).
`CN(CC(=O)Nc1ccc(F)c(F)c1F)C(=O)c1ccc2c(c1)OCCO2` has an EC50 of over 1000 nM (ABCA1).
`Oc1cc2c(cc1CN1CCN(c3cccc(Cl)c3)CC1)oc1ccccc12` has an EC50 of 1400 ± 600 nM (NR4A1 (Nur77); agonist, cell-based).
For `CCNC(=O)C1CC(C)CCC1C(C)C` (stereo not shown), the EC50 was 3700 nM (TRPM8 human).
With `COc1ccccc1Oc1cccc(CN2CCC3(CC2)C(=O)NCN3CCc2ccccc2)c1` the EC50 was over 10000 nM (human CCR8 S110H mutant (TM3); IP accumulation, agonist).

Excerpt of the above:
For `CCNC(=O)C1CC(C)CCC1C(C)C` (stereo not shown), the EC50 was 3700 nM (TRPM8 human).
